{"data": "Assay results collected from several papers", "note": "Numbered parts are unrelated; each lists some results of a single study."}
{"data": "Study 1", "target": "RNA binding protein fox-1 homolog 2, RRM domain, GST-SBP tag (RBFOX2, Homo sapiens, UniProt O43251-10, residues 100-194)", "technique": "RNA Bind-n-Seq", "molecule type": "RNA", "sample": "in vitro", "concentration": "365 nM", "setting": "natural RNA segment, single round, ends assumed", "baseline": "no-protein control", "reading": "higher = stronger binding", "all sequences stand within": "GGGAGUUCUACAGUCCGACGAUC … UGGAAUUCUCGGGUGCCAA", "Residues (chain)": "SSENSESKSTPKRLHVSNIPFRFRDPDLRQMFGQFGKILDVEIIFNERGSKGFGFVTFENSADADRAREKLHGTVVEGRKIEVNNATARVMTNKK"}
{"Strand": "CAGACGUCUGUCCCGCUGCUCUCUCCCCAUCUCCUACCCCACAUCCUGUCUUAGCCGCAGUCUCCAGAACCCAUGAUGAACUGUGAUCUGCCGUGGUCCUGCCGUGGUCC", "RBNS enrichment (R)": 0.834}
{"Strand": "CGUGUGGACCGCCAGGCCCUCUCAGUCCAUUUUCCGGGGCUGCUCGGUGCUGCUGUUAAGACGUGAGUGCAUUUCACUUGGAAGAACCCAUUGUACAAAGUUCAAGGCUA", "RBNS enrichment (R)": 0.27}
{"Strand": "UUCUGCUGUUUUUGGCAGUCGCUUUUCUGAAUUCUCCCCUCCGGCAGCCUUCCAGAGACUGAUCCUGGAGAUUGAGUUGAUUGUCUUGGCUAGACCUGUCAUUUUAAGCU", "RBNS enrichment (R)": 0.459}
{"Strand": "UGCAUCUAAUCCAAGCUUUGAAGGGUGUUGCUUGGGAGGAAACAAAUACAGCCUUCCAUCUUCACUCCAGUUAGGGAUCCUUUCAAAGUCUCCUUCACAGUGAGGAAAAA", "RBNS enrichment (R)": 0.383}
{"Strand": "GUAAAAAGCAUGUAUUUAUAGUGUUUUAGAUUUUUCUAACUUUUGUAUCUUACAGCAUUGUACCCCAUUGUUAAAGAGCCGUGUCCCCUCUUCUUAUAAACGCCCUUCUA", "RBNS enrichment (R)": 0.862}
{"Strand": "CCUAGGGGAGGGGAGAUAAGAAACCCUCACUCUCUACAGGUUUGGGUACAAGUGGCAACCUGCUUCCAUGGCCGUGUAGAAGCAUGGUGCCCUGGCUUCUCUGAGGAAGC", "RBNS enrichment (R)": 0.398}
{"Strand": "UCAUGGAGGACUAAAGCCUAAGUCCUUUUCACUUUUCCUCCAUCUGAAGGUAGGUGAGUUCAUCCUCUUCAUGGUAAUGCUGUUUUACCAAGACUUUAUAGCAGAUGGAC", "RBNS enrichment (R)": 0.224}
{"Strand": "GGUGAACUUUUGGGGUCAUUAUAUCAAUUUUUUCUUUGGAUUCAAAUUGUAAUGUCCCCUGCAUUUCCUUAAUAGGGAAUGUGAAACCUUUAUAAAACUCUAAAAGUAUU", "RBNS enrichment (R)": 0.358}
{"Strand": "ACUCUUUAUAAAAUAAAGUGUUAGGUAAAUUGAGAAGACCAUUCCAUCAUUGAAGUGUUGGGAUAUGAAUACAUUCCAGAGCAUAGCCUUUUGUAAUUUUAGGUAGUUAU", "RBNS enrichment (R)": 0.554}
{"Strand": "UUGCCUUUGCUGUUGUAUGUAAAGUUUCAAAUUGCUCCUCUUGUGACUUUUCAGCCAGUACCAUUUUAUUUACCUGAGCUUGUCAUGGAAGUGGCAGUAAAAAGUAUUGA", "RBNS enrichment (R)": 0.574}
{"Strand": "UCCCAGAACUCUGAGCAAAGGGACUGUGAUGCCAAACCAGACUUUGGUCCCUUCCUGAGCCCUGCUCCAGUUGUCCCUAAGUGCCUUCCCUUUUGUCUGGACUGACCUGA", "RBNS enrichment (R)": 0.534}
{"Strand": "ACUUCCCAGGCAAAUAGGCCCCUUUGAGGCUCCUGAGUGCCCUCAGAUGGUCAAAACCCAGUUUUCCCUCUGGGAGCCUAAACCAGGCUGCAUCGGAGGCCAGGACCCGG", "RBNS enrichment (R)": 0.198}
{"data": "Study 2", "target": "Histone acetyltransferase KAT6A, both winged helices, GST fusion (KAT6A, Homo sapiens, UniProt Q92794, residues 1-181)", "technique": "protein binding microarray", "molecule type": "double-stranded DNA, one strand shown", "sample": "in vitro", "concentration": "not given", "setting": "8-mer, flanks averaged, mean of 2 arrays, mostly near background", "baseline": "not given", "reading": "higher = stronger binding", "Residues (chain)": "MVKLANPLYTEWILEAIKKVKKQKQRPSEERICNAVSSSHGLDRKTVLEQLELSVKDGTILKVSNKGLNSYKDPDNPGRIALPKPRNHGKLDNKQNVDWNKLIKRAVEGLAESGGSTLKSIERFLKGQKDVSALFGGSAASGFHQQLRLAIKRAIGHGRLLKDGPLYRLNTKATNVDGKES"}
{"Strand": "ATCGCGAA", "E-score": 0.231}
{"Strand": "ACCTGGGC", "E-score": -0.106}
{"Strand": "AATGATCA", "E-score": -0.0296}
{"Strand": "TCGAGCAA", "E-score": -0.0925}
{"Strand": "CAGCGGAG", "E-score": 0.113}
{"Strand": "AACTAACG", "E-score": 0.158}
{"Strand": "GACCCCCA", "E-score": -0.246}
{"Strand": "CCAGGTCC", "E-score": -0.102}
{"Strand": "AGTCCCCC", "E-score": -0.0808}
{"Strand": "AAAAACCT", "E-score": -0.276}
{"Strand": "CCGGTTTC", "E-score": 0.218}
{"Strand": "CAGGCCGC", "E-score": 0.127}
{"Strand": "TAGGGCCA", "E-score": -0.197}
{"Strand": "ACTTGTCT", "E-score": -0.315}
{"Strand": "AAGCCTCG", "E-score": -0.0466}
{"Strand": "GCTCGAGC", "E-score": 0.166}
{"data": "Study 3", "target": "RING finger protein unkempt homolog, zinc fingers 1-6, GST-SBP tag (UNK, Homo sapiens, UniProt Q9C0B0, residues 30-357)", "technique": "RNA Bind-n-Seq", "molecule type": "RNA", "sample": "in vitro", "concentration": "not given", "setting": "RNA with constant flanks, human-mouse chimeric sites, ends assumed", "baseline": "input RNA pool", "reading": "higher = stronger binding", "all sequences stand within": "GGGAGUUCUACAGUCCGACGAUC … CAACAGAGGAUUGAGCAUCA", "UniProt Q9C0B0, sequence (30-357, looked up)": "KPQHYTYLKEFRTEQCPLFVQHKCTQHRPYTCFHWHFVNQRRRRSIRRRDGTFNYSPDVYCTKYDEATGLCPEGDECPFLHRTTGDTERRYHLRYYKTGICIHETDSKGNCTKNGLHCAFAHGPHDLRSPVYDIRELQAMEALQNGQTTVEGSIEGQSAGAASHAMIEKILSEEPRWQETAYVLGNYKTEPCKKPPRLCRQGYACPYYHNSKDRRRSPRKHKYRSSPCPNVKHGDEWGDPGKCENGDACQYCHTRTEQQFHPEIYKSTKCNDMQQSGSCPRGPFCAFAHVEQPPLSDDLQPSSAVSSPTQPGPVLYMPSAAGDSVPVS"}
{"Strand": "GAAUCCUACUCAGGCGGAUUUUGCAACACCAAGCUCACAGCAGCAGCAUCUUAGUCACAGUAGGGUAGUUUUGGGGCAAUAUUGCCAGGGUUUUAUUCACAUGCAGGUUUGGAAAAUGUA", "bound/input enrichment": "3.44 ratio"}
{"Strand": "UUGCUACUAACUCCAUGGGUCAAGUUCCUGUGGGAAUCAUACAGGCAGUGUUUGGACCUUCUUCGAAACAAUUCUAGAGUAGAGCGCCUUUACCAUGAUAUCGCCCAACAAGCUUUCAAA", "bound/input enrichment": "0.189 ratio"}
{"Strand": "CUGAAAAACACAGAUAUCAAAGUUGUUGACUUUGGAAGUGCAACAUAUGAUGAUGAACAUCACAGUACUUUGGUGUCUACCCGGCACUACAGGGCUCCCGAGGUCAUUUUGGCUUUAGGU", "bound/input enrichment": "0.372 ratio"}
{"Strand": "CAGACUGGCAACUGUUUUUUAGACAUUCACAUCAGACUUACAGAGCACCUGGCCACAUUCUAGGUUUGUGUUAUUUCUCAGCUAUGGAUAUGAUCAAAUGAGAACACUGCUUAACUAAUG", "bound/input enrichment": "0.343 ratio"}
{"Strand": "AAAGUGAUAACCAUGUUUGUACAGCGACAGGUAUUUUCGGAGAGCAAAGAUGAGAUUGCGUUAGUCCUCUAUGGCACAGAUGGCACUGAUAAUGCCCUUGCUGGCAAGGACCAGUAUCAG", "bound/input enrichment": "0.154 ratio"}
{"Strand": "AGAGAUAAGACAUCCAGAAAUAUGAGAGGCUCCCGGAUGAAUGGGUUGCCUAGCCCCACUCACAGCGCCCACUGUAGCUUCUACCGAACCAGAACCUUGCAGGCACUAAGUAAUGAGAAG", "bound/input enrichment": "0.223 ratio"}
{"Strand": "CGGAGCCCUCCUCUCCCACAGGCCCAAGAUAUAACCCACCAGUGCCUUUUGUCUUCCUGUCAGCUCUAAUCAAUCAUGCCCUGCCUUCACGCCCACACCAAGUGCCCAAAGUGGGGAGGG", "bound/input enrichment": "0.309 ratio"}
{"Strand": "GAGUCGAGCAAACUUGAAACAAUUCGUUUUACAAAAAAGCUUCGGUGCACUUGCUUGGCGAUAGCAUUGGGGUUUUAUAGGUUCUGGAAGGAGAACUGACGAUGAUGCUGCCGCUGCUGC", "bound/input enrichment": "0.188 ratio"}
{"Strand": "AACAUUUUGUCAAAUUGUUAUGUUCCUGUGAAACAAGUGAGCACUUUGAUACACUUCAUCUGCUUGUACAUCUGUAUGAUAGAGAAAUGUAAAUAUGUUAAUCCAAGCAAUGUGUCACUU", "bound/input enrichment": "0.18 ratio"}
{"Strand": "CGCGUCCUCUCGCUGCUGCGGAGCCCGAGCUGGGAACCAUUCCGGGACUGGUACCCUGCACACAGCCGCCUCUUCGAUCAAGCUUUCGGGGUGCCCCGGCUGCCGGAUGAGUGGUCGCAG", "bound/input enrichment": "0.14 ratio"}
{"Strand": "GUACUGCAGCAGCAGGGAAAACUGCAGGAAGCUCUGAUGCAUUAUAAGGAGGCUAUUCGAAUCAGUCCUACCUUUGCUGAUGCCUACUCCAAUAUGGGAAACACUCUAAAGGAGAUGCAG", "bound/input enrichment": "0.127 ratio"}
{"data": "Study 4", "target": "Interferon regulatory factor 7, full length, phosphomimetic (IRF7, Homo sapiens, UniProt Q92985, residues 1-503, S471D/S472D/S475D/S476D/S477D/S483D/S484D/S487D)", "technique": "protein-binding microarray", "molecule type": "double-stranded DNA, one strand shown", "sample": "in vitro", "concentration": "2200 nM top", "setting": "60-bp whole probe", "together with": "salmon DNA 0.4 mg/ml", "baseline": "random background probes", "reading": "higher = stronger binding", "all sequences stand within": "GCCTAGCAC … GTCTTGATTCGCTTGACGCTGCTG", "Residues (chain)": "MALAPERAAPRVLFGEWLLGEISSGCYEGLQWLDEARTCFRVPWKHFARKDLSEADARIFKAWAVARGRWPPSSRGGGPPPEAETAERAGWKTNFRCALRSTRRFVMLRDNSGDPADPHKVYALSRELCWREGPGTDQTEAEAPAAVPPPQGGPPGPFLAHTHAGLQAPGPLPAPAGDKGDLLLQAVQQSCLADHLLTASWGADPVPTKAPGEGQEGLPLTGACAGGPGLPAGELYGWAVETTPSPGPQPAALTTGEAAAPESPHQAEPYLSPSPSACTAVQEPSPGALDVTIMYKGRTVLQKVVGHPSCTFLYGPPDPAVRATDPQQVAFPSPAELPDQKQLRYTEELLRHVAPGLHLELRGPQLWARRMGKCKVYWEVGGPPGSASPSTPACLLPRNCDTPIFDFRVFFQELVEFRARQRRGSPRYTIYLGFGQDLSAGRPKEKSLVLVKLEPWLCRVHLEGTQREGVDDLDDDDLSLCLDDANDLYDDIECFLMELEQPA"}
{"Strand": "AATTTTTTGTATTTTTAGTGGTGCTAG", "fitted relative affinity [z-score]": 0.446}
{"Strand": "TTAGATCTCAGTTTCGGTTAGTGCTAG", "fitted relative affinity [z-score]": 7.35}
{"Strand": "TTAGGTTTCATTTTCCTTTAGTGCTAG", "fitted relative affinity [z-score]": 7.08}
{"Strand": "GACGGTTTCGACACTGGGGACGTGCTA", "fitted relative affinity [z-score]": 2.86}
{"Strand": "TCATCTTTCCTTACTTCACTGTGCTAG", "fitted relative affinity [z-score]": 2.74}
{"Strand": "TTGTTTTTCATCATTGCCTAGTGCTAG", "fitted relative affinity [z-score]": 2.38}
{"Strand": "TCACTTGTCCCTCCGGGACTGTGCTAG", "fitted relative affinity [z-score]": 0.417}
{"Strand": "TCAGTTTCGTATCTTCATACTGTGCTA", "fitted relative affinity [z-score]": 8.32}
{"Strand": "GACGAGTTCGGGTTTCGAGACGTGCTA", "fitted relative affinity [z-score]": 1.89}
{"Strand": "TTAGGTCTCCTTATCCTTTAGTGCTAG", "fitted relative affinity [z-score]": 0.875}
{"Strand": "GACGAACTGAGTCTCGAGCCGTGCTAG", "fitted relative affinity [z-score]": 0.0319}
{"Strand": "TAGCGTATATTCCCTAGAATAGTGCTA", "fitted relative affinity [z-score]": 0.04}
{"Strand": "TTAGGTTTCGGGTTTCGGTTCGTGCTA", "fitted relative affinity [z-score]": 13.7}
{"Strand": "GACGATTTCGGGACTGGAGTCGTGCTA", "fitted relative affinity [z-score]": 1.47}
{"Strand": "TGAAAACTAAGTTTATTAGAGTGCTAG", "fitted relative affinity [z-score]": -1.18}
{"Strand": "TTAGTACTGGGGTATCGGTTAGTGCTA", "fitted relative affinity [z-score]": 0.198}
{"Strand": "GACGGTTCCGGTTTCGGGAGGTGCTAG", "fitted relative affinity [z-score]": 5.02}
{"Strand": "TTAGGTTTCGGTTGCGGTTAGTGCTAG", "fitted relative affinity [z-score]": 7.76}
{"Strand": "GACGATTTCGGGTATCGAGGCGTGCTA", "fitted relative affinity [z-score]": 2.52}
{"note": "For quick reference, copied from above (study 1):"}
{"Strand": "UCAUGGAGGACUAAAGCCUAAGUCCUUUUCACUUUUCCUCCAUCUGAAGGUAGGUGAGUUCAUCCUCUUCAUGGUAAUGCUGUUUUACCAAGACUUUAUAGCAGAUGGAC", "RBNS enrichment (R)": 0.224}
{"Strand": "CCUAGGGGAGGGGAGAUAAGAAACCCUCACUCUCUACAGGUUUGGGUACAAGUGGCAACCUGCUUCCAUGGCCGUGUAGAAGCAUGGUGCCCUGGCUUCUCUGAGGAAGC", "RBNS enrichment (R)": 0.398}
{"Strand": "GUAAAAAGCAUGUAUUUAUAGUGUUUUAGAUUUUUCUAACUUUUGUAUCUUACAGCAUUGUACCCCAUUGUUAAAGAGCCGUGUCCCCUCUUCUUAUAAACGCCCUUCUA", "RBNS enrichment (R)": 0.862}
